Results of several laboratories.
Lines come from different studies, so protocols differ. “And” joins repeats or separate records; there may be more than shown. ± gives the spread as reported.
IDE: Insulin-degrading enzyme (IDE, Homo sapiens, UniProt P14735)

SMILES	tested on	test	test system	setting	how to read	quantity	value
Cn1cc(-c2ccc(-c3cncc(Cl)c3N3CCC4(CCNC4=O)CC3)cc2)cn1	COLO 205	gene expression, microarray, item: INHBB mRNA		concentration not given, 6 h	baseline: untreated cells	log2 fold change	1.83
Oc1ccccc1-c1n[nH]cc1-c1ccnc2ccccc12	FPK1 (Candida albicans)	kinase binding, MIB/MS competition	Candida albicans lysate	10 µM	baseline: DMSO	log2 fold change	0.37
CN1CCc2c(c3ccccc3n2Cc2ccc(C(=O)NO)cc2)C1	HBL-1			1 µM, 120 h		viability	98.7%
COc1ccc2c(=O)c(C3CCC(c4ccc(Cl)cc4)CC3)c(C)[nH]c2c1 (centres unmarked)	Plasmodium yoelii		17XL	384-well		IC50	400 ± 33 nM
CO[C@@H]1CN(C)C(=O)c2cc(NC(=O)c3ccc(Oc4ccccc4)cc3)ccc2OC[C@@H](C)NC[C@@H]1C	IDE	enzyme activity, inhibitor, fluorogenic kinetic		together with: Mca-RPPGFSAFK(Dnp)-OH substrate		EC50	2400 nM
CN1CCCC(CN2CCN(Cc3ccc(-c4cccc(-c5nc6ccccc6[nH]5)c4)cc3)CC2)C1 (centres unmarked)	Plasmodium yoelii		17XL	384-well		IC50	> 20000 nM
O=C(c1ccc(C(=O)N2CCC(N3CCCC3)CC2)c(Nc2ccccc2)c1)N1CCC(N2CCCC2)CC1	HBL-1			0.5 µM, 120 h		viability	111%
COc1ccc(F)cc1C(=O)NCc1ccc(-c2nn([C@@H](C)C(F)(F)F)c(N)c2C(N)=O)cc1	MEK1/MEK2 human	probe binding, competitive chemoproteomics	live human PBMCs	10 µM		inhibition	> 50%
CCOc1ccc2cc(-c3nn(CC4CCNCC4)c4ncnc(N)c34)ccc2c1	Theileria equi	hydroethidine flow cytometry	USDA Florida	30 µM, 72 h		% of maximum PPE	5.28%
c1coc(-c2n[nH]cc2-c2ccnc3ccccc23)c1	BCK1 (Candida albicans)	kinase binding, MIB/MS competition	Candida albicans lysate	1 µM	baseline: DMSO	log2 fold change	-0.29
CCOC(=O)c1cn(CC)c2cc(N3CCCCCC3)c(F)cc2c1=O	Plasmodium yoelii		17XL	384-well		IC50	97 ± 14 nM
O=C(O)CNC(=O)Cc1ccccc1			ventricular cardiomyocytes, C57BL/6 mouse	dose not given, 0.204 s		sarcomere length	1.62 µm
COc1cnc2cccc(N3CCc4c(cc(Cn5ccnc5C)cc4-c4cn(C)nc4C(F)(F)F)C3=O)c2c1	SNU-886	cell growth, inhibitor		120 h		EC50	12500 nM
COc1cccc2c1C(=O)c1c(O)c3c(c(O)c1C2=O)C[C@@](O)(C(=O)CO)C[C@@H]3O[C@H]1C[C@H](NC(=O)[C@@H]2CCCN2C(=O)CNC(=O)[C@@H](N)CC(C)C)[C@H](O)[C@H](C)O1			healthy mouse, plasma	intravenous, 94.4 mg/kg PhAc-ALGP-Dox		Cmax	1300 ± 180 nM
CCOC(=O)c1c(-c2ccccc2)nc2c(sc3ccccc32)c1O	Plasmodium yoelii		17XL	384-well		IC50	102 ± 21 nM
COc1cc([C@@H]2c3cc4c(cc3[C@@H](O[C@@H]3O[C@@H]5CO[C@@H](C)O[C@H]5[C@H](O)[C@H]3O)[C@H]3COC(=O)[C@H]23)OCO4)cc(OC)c1O	HBL-1			0.5 µM, 120 h		viability	14.7%
Cc1[nH]cc(Br)c(=O)c1-c1ccc(Oc2ccc(OC(F)(F)F)cc2)cc1	Plasmodium yoelii		17XL	384-well		IC50	155 ± 3 nM
CCOc1ccc2cc(-c3nn(CC4CCN(C)CC4)c4ncnc(N)c34)ccc2c1	Theileria equi	hydroethidine flow cytometry	USDA Florida	9 µM, 72 h		% of maximum PPE	17.3%

SMILES	tested on	test	test system	setting	how to read	quantity	value
C[C@H]1O[C@@H](O[C@H]2CC[C@@]3(C)[C@@H](CC[C@]4(C)[C@@H]3C=C[C@]35OC[C@@]6(CCC(C)(C)C[C@H]63)[C@@H](O)C[C@]54C)[C@]2(C)CO)[C@H](O)[C@@H](O[C@@H]2O[C@H](CO)[C@@H](O)[C@H](O)[C@H]2O)[C@H]1O		Western blot, item: PPARα	chronic-plus-binge ethanol-fed mice, liver	dose not given, medium dose, unit not given	baseline: β-actin	protein level	0.814 and 0.601 and 0.785
O=C(O)CCCc1ccccc1	HBL-1			0.1 µM, 120 h		viability	122%
O=C(C[C@@H](C(F)F)n1ccc(F)n1)N1CCC(O)(Cn2cnc3c(cnn3-c3ccc(F)cc3)c2=O)CC1	CHP-212 parental	cell viability, SRB		mean of 3 runs		IC50	94.1 nM
OC(CCN1CCCCC1)(c1ccccc1)C1CC2C=CC1C2 (centres unmarked)		resting-state EEG	healthy elderly humans	oral, 4 mg, eyes open, LS mean		EEG Beta2-power Pz-O1	0.8 µV²
CCn1cc(-c2cc(Cn3ccoc3=N)cc3c2CCN([C@@H](C)c2cc(OC)ccn2)C3=O)c(C(F)(F)F)n1	HuTu80	cell growth, inhibitor		120 h		EC50	4130 nM
CC(C)NCC(O)c1ccc(O)c(O)c1 (centres unmarked)			ventricular cardiomyocytes, C57BL/6 mouse	dose not given, 0.4 s		sarcomere length	1.72 µm
COc1cccc(C#Cc2ccc([C@@H]3[C@H](CO)N4C(=O)CN(C(=O)Cc5cccnc5)C[C@@H]34)cc2)c1	IDE	enzyme activity, inhibitor, fluorogenic kinetic		together with: Mca-RPPGFSAFK(Dnp)-OH substrate		EC50	6200 nM
O=C(c1cc(-c2ccco2)[nH]n1)N1CCN(S(=O)(=O)c2ccc(Br)cc2)CC1	Plasmodium yoelii		17XL	384-well		IC50	280 ± 171 nM
CCCOc1ccn2c(C(C)=O)cc(-c3ccccc3S(C)(=O)=O)c2c1	HBL-1			0.1 µM, 120 h		viability	110%
O=C(/C=C/C=C/C=C/C1CCCCC1)NC1=C[C@@](O)(/C=C/C=C/C=C/C(=O)NC2=C(O)CCC2=O)[C@@H]2O[C@@H]2C1=O	NCI-H1693	cell growth, CellTiter-Glo		78 h		GI50	12500 nM
N#C/C(=C\c1ccc(-c2cc(Cl)ccc2Cl)o1)C(=O)Nc1cccc2ncccc12	HBL-1			0.5 µM, 120 h		viability	113%
COc1ccc(CCc2ccc(-c3c(C)[nH]c(C)c(Cl)c3=O)cc2)cc1	Plasmodium yoelii		17XL	384-well		IC50	149 ± 49 nM
O=C(NCc1ccccc1)c1c(/N=C/c2c(O)ccc3ccccc23)sc2c1CCCC2	HBL-1			1 µM, 120 h		viability	99%
NC(=O)c1cnc2[nH]ccc2c1N[C@@H]1[C@@H]2CC3C[C@H]1C[C@@](O)(C3)C2		flow cytometry	Japanese healthy men, blood	oral, 10 mg twice daily, 72 h after day 7 dose	baseline: baseline	CD8+ memory T-cell change	-0.25%
COc1ccc(C#Cc2ccc(-c3c(C)[nH]c(C)c(Cl)c3=O)cc2)cc1	Plasmodium yoelii		17XL	384-well		IC50	290 ± 120 nM
O=C([C@@H](Cc1cccc(C(F)(F)F)c1)NS(=O)(=O)c1cc(F)c2c(c1)CCNC2)N1CCCC1	HBL-1			0.5 µM, 120 h		viability	122%
CCc1c(C)nc(-c2ccc(Cl)s2)nc1Nc1ccc(CC(=O)O)cc1		histology	C57BL/6J mouse, MCD diet MASH model	intraperitoneal, 0.3 mg/kg daily, MCD diet 6 weeks, dosed final two weeks	baseline: untreated	liver parenchymal dysregulation	decreased
